Measured values collected from several papers.
Parts stem from different laboratories: compare values within a part only.

Sample 1
Target: RNA binding protein fox-1 homolog 2, RRM domain, GST-SBP tag (RBFOX2, Homo sapiens, UniProt O43251-10, residues 100-194)
Technique: RNA Bind-n-Seq
Form: RNA
Medium: in vitro
Tested at: 365 nM
Notes: natural RNA segment, single round, ends assumed
Baseline: no-protein control
Direction: higher = stronger binding
All sequences stand within: GGGAGUUCUACAGUCCGACGAUC … UGGAAUUCUCGGGUGCCAA
Construct (chain): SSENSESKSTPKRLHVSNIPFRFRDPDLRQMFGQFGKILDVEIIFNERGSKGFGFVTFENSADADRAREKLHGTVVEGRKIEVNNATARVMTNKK
| Oligonucleotide | RBNS enrichment (R) |
| --- | --- |
| CUCAUGCAAAGUAGGGAACACCUUUUGAGCAUCUUUGAAUUUGACAAAUGGUGCUGUUGCAAACACUUUUUUUUUGAGAUGAAGUCUCGCGGUUGUCACCCGGGCUGGAG | 1.19 |
| AGAGGGACAACUGCAGCAGUGGGGAGGAGGCACAGCUAGCUGCACAGUUCUCUCUUCUCCUUGUCCUAGUCAGAUGAAGGAGGCUGCACUACAAACCCAAAUUCUGCAAA | 0.758 |
| GCCGACACCAGACGUGAUUAGCAGGCGCAGCAAAUUCAAUUUGUUAAAUGAAAUUGUAUUUUGCCCACGGCUGCUUCUGUUUGAUCCCUGGGGACAGAGGGGAGCAAGGG | 0.448 |
| UAAAAUAGGAUGGAGUGCUCUGUUGAUCAUUUGGGAGAUGUAGGUUACCUGAUUUGUGCCUUAGGAUGCAGCGUGAAGCAGAAGUCCAUAUUGCAAUUAUGAUUUUAGAA | 3.57 |
| GAAAACCUGUUAUUACCUGUGUGCUUUUCACUUGGUUGUUCAUGAACUGCAGAGGGGGCUCCUUGAGUUCUGUCUGCACAAGAAACUGCACUGCAAGUUUUGAAGGAGUC | 0.327 |
| UCAACUAUUAGCAAAUUCCAUUUGGUGGCUUAGCAUUGGAAAGAACAGAUAAAGUAGCUGAUGCCUAGAAGAUCCUCUGCUUUUUCCGAUCCAGUGGUAGCCUUUGAUAC | 0.585 |
| UUUUUUGAAAAUUUUAUAUACUUUAUAAAAACUCCAACCGUUUUUUUAAAAAAAAUAAAAUUUAACAGUUAUCAGCUGAUAGGCAAGUCAUUGAAAAAGUAAUUUUACGU | 1.03 |
| GUUUUUGGUUGAUAGUUGAGCAAACUGACAUUACAGAAAGUGCCUUAGACACUACAGUACUAAGACAAUGUUAAAUAUAUUAUUUGCCUCUAUAACAACUUAAUGUAUUA | 0.364 |
| CGCCCUUAGAAGCAGGGAUUGCAAAGCUUAGGGCCCCCGUGCCAAGCAAAGACCAAAGAUGCAUCAGCUUAAAGAGAAGUCAGACGACAAUGACGAAUCAUUCCAAGGCC | 0.348 |
| CUGCACCCCCUCAUAGCAGUAGUGGCUUCGCCAUUCUGUUUUCUGCAGUGUCCUGUACAAAACUGUGCUGUGACUGUGCGGUAGGCCUGGACAUGGCAAAGAGAAUACAG | 0.207 |
| AAAAUUCAGCAGAUCUCCUUUCUAGGUGCAACUGUUCAGUGAAUUCCCUCACUAAAAGCUUAAGCAAUUGUCAGUCAGAAUUCUGUUUGCUGAGUGCUGGUGCAGGCUUU | 0.765 |
| CUUUUCCACAUUCAAUGGAAGCUUCAUGGUUGUUCUGACAGUGAAAGCAGUCCUGGAGAUCCCAUUAUUAAUAAAACAAAAAGGCCUGCAGAGAUUCCUGACCACUGAUC | 0.294 |

Sample 2
Target: Histone acetyltransferase KAT6A, both winged helices, GST fusion (KAT6A, Homo sapiens, UniProt Q92794, residues 1-181)
Technique: protein binding microarray
Form: double-stranded DNA, one strand shown
Medium: in vitro
Tested at: not given
Notes: 8-mer, flanks averaged, mean of 2 arrays, mostly near background
Baseline: not given
Direction: higher = stronger binding
Target sequence (chain): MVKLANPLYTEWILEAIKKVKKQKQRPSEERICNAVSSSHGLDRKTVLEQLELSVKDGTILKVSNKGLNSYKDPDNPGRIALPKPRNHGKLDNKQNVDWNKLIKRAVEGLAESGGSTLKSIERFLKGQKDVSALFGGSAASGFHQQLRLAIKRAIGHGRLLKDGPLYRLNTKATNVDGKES
| Oligonucleotide | E-score |
| --- | --- |
| CAACTACC | -0.136 |
| ACGGTCGA | 0.163 |
| TCCGAGAA | 0.129 |
| CACAATAA | -0.197 |
| AACCCCAG | -0.193 |
| AATCACCA | -0.0426 |
| GATTCTCC | -0.0561 |
| ATGATACA | -0.0474 |
| AAACCGTC | 0.199 |
| GGACAGCC | 0.0549 |
| AAAAACCG | 0.147 |
| CCTTGAAA | -0.0596 |
| ACAGAACG | -0.0429 |
| AGAGCTAA | -0.262 |
| AAATGGAT | -0.0991 |
| CGTCACAC | 0.0212 |
| AAAGCTAC | -0.197 |
| ACCCACAC | -0.108 |
| AGATTTTA | -0.0265 |
| GGCACGCA | 0.119 |
| GGAAGATA | -0.00668 |
| TGAGTAAA | -0.153 |
| CCCCTGCA | -0.14 |
| ACATACGG | 0.237 |
| GGAACCTA | 0.0286 |

Sample 3
Target: RING finger protein unkempt homolog, zinc fingers 1-6, SBP tag (UNK, Homo sapiens, UniProt Q9C0B0, residues 30-357)
Sequence of UniProt Q9C0B0 (30-357, looked up): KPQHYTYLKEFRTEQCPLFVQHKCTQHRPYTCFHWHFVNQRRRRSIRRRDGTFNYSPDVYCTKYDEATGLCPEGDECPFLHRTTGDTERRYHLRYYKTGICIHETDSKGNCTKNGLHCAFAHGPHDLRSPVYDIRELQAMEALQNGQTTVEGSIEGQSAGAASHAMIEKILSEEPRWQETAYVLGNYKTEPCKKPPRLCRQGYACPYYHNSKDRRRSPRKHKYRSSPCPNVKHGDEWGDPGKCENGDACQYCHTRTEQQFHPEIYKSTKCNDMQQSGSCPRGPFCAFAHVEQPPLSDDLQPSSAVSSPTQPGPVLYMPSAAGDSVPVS
Technique: RNA Bind-n-Seq
Form: RNA
Medium: in vitro
Tested at: 100 nM
Notes: RNA with constant flanks, vertebrate orthologous sites, ends assumed
Baseline: input RNA pool
Direction: higher = stronger binding
All sequences stand within: GGGAGUUCUACAGUCCGACGAUC … CAACAGAGGAUUGAGCAUCA
| Oligonucleotide | bound/input enrichment [ratio] |
| --- | --- |
| ACACAAAGAAGCAGGACAAGAUAUUUUAACUGUUUAAAAAUUGAGCUUUGCUGUUUUACAUAGAAUACUUUUAUAUUGUAAGUGCUUAAAAUGUGUGGAGAUGUUAGUUUUGCUCUUAUA | 0.429 |
| AAAUAUACUUCAUGCCAUGGACUCCAUACCGUACCGAUACUUUGAUAGAAUACGCUUCUUUAGAGGACUUCCAAAAUGGACGGCAACAGACGACAUAUAAGCUUCCAAAUCGAGUGGAUG | 0.793 |
| GUCCCCUGGACCGGGACAGACUUUUUUUUUAAACGUCUUGAAACCUAAACUCUGUGCUUGUAGAAGACUGUAACCUUUUUGUCUUUUUUUUUUUUUAAACAAACAAAAAAACCAACCUCC | 0.505 |
| CACAUCUGGUGAUAUUUGGCCUGGCCUUUCAGCUUAUGAUAAUAGUCCCAGAUCACCCCAUAGUCCUUCACCUAUUGCUACACCACCUAGUCAGAGUUCAUCUUGCUCAGAUGCCCCUAU | 1.24 |
| CUGUUGUUAAGCACUGUGUUCCAGACCGUGUCUGACUUUAGUGUAACCUAGGAGAUUUUAUAGUUUUAUUUUAAUGAAAUCCUGCUUGAUGCAGAGCAGCGGGGAGAGCAGUGUCUUCUA | 2.8 |
| GUGUUUUGGUACCACUCAAUGUACCAAUACUCAUCCUUUUUUCAUUAUACCAACUAUCACUAGAAAUAGGAGUUUAAUAUUUUAAAAAUUUUACAUUGCUGUAUAUUCAAAAUUUUAAAG | 0.511 |
| UCCAGUCUUACACUUAUGGUUGGCCUCAAAUCUAUUGCAUUUAUGAUAAUGUAGUAUAUCUAGUUGAGUUUAAUAUUUUUUUAUUAGCCUGUAAAUAAAGAUGGCAUCUUCUACAUUAAA | 0.588 |
| CUGUGAGGGUCUACUGACCACUCACUAUUAUGUCUGGUAUCUGUAAACACUUUCUGUUCUUAGUCCUUUCCUUGUAAAAUUGAUGUUCUUUAAAAUUGUUAAUGUAUAACAGGGCUUAUG | 0.946 |
| UUCAGGCACAACUGACUGGUUCACAGCACUCCUUACAUAGUUAUCUAUCAAAUUCAAGUGUAGUUAAUUUUCAGGAAACAACCAGGCAGUCAUCUUUAUCCUGUAGCCCAGUUGGAGAUU | 1.37 |
| GUCUAGAGAGGGGUGACAUUAACAUAUCCAAAUAAAGAAAUGCAAUGCUGAAAGUUCUAUCAGUACUAAGGUUAGCUGGAGAAUUUAAAGAAGCCUCUCAGGUAAUUCUAAAAUGAAAAG | 0.617 |
| CACAUCUGGUGAUAUCUGGCCUGGCCUUUCAGCUUAUGAUAAUAGUCCGAGAUCACCUCAUAGUCCUUCACCUAUUGCUACACCACCCAGUCAGAGUUCCUCUUGCUCAGAUGCCCCCAU | 1.08 |

Sample 4
Target: Ras GTPase-activating protein-binding protein 1, full length (G3BP1, Homo sapiens, UniProt Q13283)
Sequence of UniProt Q13283 (whole entry, looked up): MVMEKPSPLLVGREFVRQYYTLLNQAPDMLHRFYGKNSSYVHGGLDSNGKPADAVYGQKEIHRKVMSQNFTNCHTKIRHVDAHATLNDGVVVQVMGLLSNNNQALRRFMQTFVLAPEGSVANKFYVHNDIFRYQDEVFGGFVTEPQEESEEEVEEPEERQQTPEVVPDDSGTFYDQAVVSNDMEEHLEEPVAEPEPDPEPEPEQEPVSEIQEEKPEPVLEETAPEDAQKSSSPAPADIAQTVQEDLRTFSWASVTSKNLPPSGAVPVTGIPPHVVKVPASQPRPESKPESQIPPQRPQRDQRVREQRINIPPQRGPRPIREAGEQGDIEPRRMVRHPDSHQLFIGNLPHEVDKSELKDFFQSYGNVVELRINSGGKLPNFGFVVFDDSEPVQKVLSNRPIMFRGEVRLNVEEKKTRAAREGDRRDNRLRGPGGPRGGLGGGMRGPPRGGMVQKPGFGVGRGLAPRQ
Technique: RNA Bind-n-Seq
Form: RNA
Medium: in vitro
Tested at: 200 nM
Notes: whole 134-nt RNA, ends assumed
Added: 150 mM LiCl
Baseline: input library
Direction: higher = stronger binding
All molecules: 7-deaza-guanosine replaces G
All sequences stand within: GGGAGUUCUACAGUCCGACGAUC … UGGAAUUCUCGGGUGUCAAGG
| Oligonucleotide | log2 enrichment |
| --- | --- |
| GCCCAUGCUAAAGUAAGAUUGUCUAACAAAGUUGAAGCCAUUGAUGUGGAAGAGGCCAAACGCCUCCAUCGGGAAGCUCUGAAGCAGUCU | 0.0753 |
| AGCAUGCAGGUGGGCAUCUUUGGGAAGUGGGGCAAGGGGGGGAUAGGGAGGGGGGUAACACUUUGGGAACAGGUGGUCCCAGGUCGUUUC | 0.0192 |
| CACAGACAACACGCACCCACACAGACACAAAGGGAAGGGGUUGGGAUGGGGACAGGGUGCACAGCAGGGCGGGGUAGGACCCCAGCCCCU | -0.292 |
| GCAGGAAGUAAAAACAAAUGGAAAUGCUUCGGAUAGUGGCGGGGGUGGGGGUUGCUAAGGAAAGGGUGGGAUGGGAGUGGGUAAAGAGUU | 0.218 |
| GUCCUGUGCUACACAUCGUAUGUACCGAAUCAAACCCCCAAACCCCCCCAAAUUUAAAAAAGUAUUAUGUUACGCCGUUCGGAUCUGCAC | 0.327 |
| UGUGUUGUGCUCAUUACCAGUGCAGCGACUGCCGUCCCAGGGUGACUCUGAGUUGUCCUUUAUCGUGAGCUAGCAAUGGCUAGCGAAGAC | -1.6 |
| CUCAAGUCCUGUGCUACACAUCGUAUGUACCGAAUCGGGGAAGGAAGGGAAGGGAAAGUAUUAUGUUACGCCGUUCGGAUCUGCACUUCC | -0.332 |
| UUCCGCGACUACCGGCGUGUGCACAAGCCGCCCAAGGUGCAGGAGAAGUGCCAGCUGGAGAUCAACUUCAACACGCUGCAGACCAAGCUG | -2.08 |
| CUGUGCUACACAUCGUAUGUACCGAAUCGGGGUUUUUUGGGGUUUUUUGGGGUUUUUUGGGAAAGUAUUAUGUUACGCCGUUCGGAUCUG | 1.28 |
| CACAGACAACACGCACCCACACAGACACAGAGGGAAGGGGUUGGGAUGGGGACAGGGUGCAUAGCAGGGCGGGGUAGGACCCCAGCCCCU | -0.0445 |
| CCUGUGCUACACAUCGUAUGUACCGAAUCGGGGAAAAAAGGGGAAAAAAGGGGAAAAAAGGAAAGUAUUAUGUUACGCCGUUCGGAUCUG | 0.794 |

For quick reference, copied from above (sample 2):
| Oligonucleotide | E-score |
| --- | --- |
| CACAATAA | -0.197 |
| AAAGCTAC | -0.197 |
| AAAAACCG | 0.147 |
| TCCGAGAA | 0.129 |
| CGTCACAC | 0.0212 |
| CCTTGAAA | -0.0596 |
| CAACTACC | -0.136 |
| ACAGAACG | -0.0429 |
| AACCCCAG | -0.193 |
